Measurements pooled from the literature.
Protocols differ between the studies behind these lines. pIC50: −log10 of the molar value.
Cell line: HT-29

Structure (SMILES)	test	conditions	measurement	result
N#CSCc1ccc(CN2C(=O)C(=O)c3cc(Br)cc(Br)c32)cc1	cell growth or viability, MTS	48 h	pIC50	~6.00
CC1(C)CC[C@]2(C(=O)O)CC[C@]3(C)C(=CC[C@@H]4[C@@]5(C)CC[C@H](O)C(C)(C)[C@@H]5CC[C@]43C)[C@@H]2C1	cell growth or viability, resazurin	96 h	IC50	0.89 µg/mL
COc1cc2oc3cc(OC)c(OC)c(CC=C(C)C)c3c(=O)c2c(O)c1CC=C(C)C	cell growth or viability, fluorescence	2 h	pIC50	6.05
CSc1ccc(/C=C2/C(C)=C(CC(=O)O)c3cc(F)ccc32)cc1	cell proliferation, tritiated thymidine incorporation	72 h	pIC50	4.47
C[C@H]1[C@H](C)CC[C@]2(C(=O)O)CC[C@]3(C)C(=CC[C@@H]4[C@@]5(C)CC[C@H](O)C(C)(C)[C@@H]5CC[C@]43C)[C@H]12	cell growth or viability	72 h	pIC50	< 5.00
N=C(N)NCCC[C@H](NC(=O)[C@H](Cc1c[nH]c2ccccc12)NC(=O)[C@H](CCC(N)=O)NC(=O)[C@H](Cc1c[nH]c2ccccc12)NC(=O)[C@H](CCCNC(=N)N)NC(=O)[C@H](Cc1c[nH]c2ccccc12)NC(=O)[C@H](CCC(N)=O)NC(=O)[C@H](Cc1c[nH]c2ccccc12)NC(=O)[C@@H](N)CCCNC(=N)N)C(N)=O	cell growth or viability, MTT		pIC50	4.00
COc1cc2oc3c(C)c(OC)c(CC=C(C)C)c(O)c3c(=O)c2c(CC=C(C)C)c1OC	cytotoxicity, sulforhodamine B	72 h	pIC50	< 4.70
CC(C)=C[C@H]1OC[C@@H]([C@H]2CC[C@@]3(C)[C@@H]4CC[C@H]5C(C)(C)[C@@H](O)CC[C@@]56C[C@@]46CC[C@]23C)[C@@H]1O	cell growth or viability		pIC50	< 5.00
CC1=C(CC(=O)O)c2cc(F)ccc2/C1=C\c1ccc(S(C)(=O)=O)cc1	cell growth or viability, thymidine uptake		pIC50	4.05
CC1=CC(=O)CC(C)(C)[C@H]1CC[C@H](O)CO	cell growth or viability		pIC50	< 5.00
Cc1cnc(NC2CCOCC2)nc1-n1cnc(C(=O)NC(CN)c2cc(F)cc(Cl)c2)c1 (centres unmarked)	RSK1 Ser380 phosphorylation, ELISA		pIC50	8.15
COc1ccc2c(c1)c(CC(=O)O)c(C)n2C(=O)c1ccc(Cl)cc1	cell growth or viability, thymidine uptake	72 h	pIC50	3.87
Cc1c(N)nc([C@H](CC(N)=O)NC[C@H](N)C(N)=O)nc1C(=O)N[C@H](C(=O)N[C@H](C)[C@@H](O)[C@H](C)C(=O)N[C@H](C(=O)NCCC1=N[C@@H](c2nc(C(=O)NCCCCN=C(N)N)cs2)CS1)[C@@H](C)O)[C@@H](O[C@@H]1O[C@@H](CO)[C@@H](O)[C@H](O)[C@@H]1O[C@H]1O[C@H](CO)[C@@H](O)[C@H](OC(N)=O)[C@@H]1O)c1cnc[nH]1	cell growth or viability, resazurin	96 h	IC50	1.32 µg/mL
COc1ccc(/C=C/C(=O)CC2(O)C(=O)Nc3cc(Br)ccc32)cc1 (centres unmarked)	cell growth or viability, MTT	24 h	pIC50	4.60

For quick reference, copied from above:
Structure (SMILES)	test	conditions	measurement	result
COc1cc2oc3c(C)c(OC)c(CC=C(C)C)c(O)c3c(=O)c2c(CC=C(C)C)c1OC	cytotoxicity, sulforhodamine B	72 h	pIC50	< 4.70
